Experimental data collected from several papers.
± gives the spread as reported.

CC(=O)c1c(C)c2cnc(Nc3ccc(C4CCN(CCS(C)(=O)=O)CC4)cn3)nc2n(C2CCCC2)c1=O — patients with serious AE (HR+/HER2- advanced breast cancer patients; oral, 150 mg): 33.3%
Cc1cc(C)c(CNC(=O)c2cc(Cl)c3c(c2C)O[C@@](C)([C@H]2CC[C@H](N(C)C)CC2)O3)c(=O)[nH]1 — Hypophosphataemia incidence (human, relapsed/refractory NHL; concentration not given, treatment-related TEAEs, grade 5): 0%
CO[C@H]1C[C@@H]2CC[C@@H](C)[C@@](O)(O2)C(=O)C(=O)N2CCCC[C@H]2C(=O)O[C@H]([C@H](C)C[C@@H]2CC[C@@H](OC(=O)NCCOCCOCCOCCOCCOCCOCCOCCOCCC(=O)N3CCc4cc(Cn5nc(-c6ccc7oc(N)nc7c6)c6c(N)ncnc65)ccc4C3)[C@H](OC)C2)C[C@@H](O)[C@H](C)/C=C(\C)[C@@H](O)[C@@H](OC)C(=O)[C@H](C)C[C@H](C)/C=C/C=C/C=C/1C — abdominal pain incidence (patients with advanced solid tumours; intravenous, 6 mg weekly, grade 3 or higher): 0%
C[C@]1(CO)Cc2ncn(-c3ccc(C#N)c(Cl)c3)c2C(=O)O1 — tmax at steady state (human, plasma; 40 mg once daily, fasted): 1.5 h
O=C(c1ccc(F)c(F)c1Nc1ccc(I)cc1F)N1CC(O)([C@@H]2CCCCN2)C1 — related AE leading withdrawal (patients aged 6 to sample A years; oral, dose not given): 7%
CC(C)C[C@H](NC(=O)[C@H](CCCCN)NC(=O)OCC1c2ccccc2-c2ccccc21)C(=O)N[C@H](C(=O)N[C@@H](Cc1ccccc1)C(=O)N[C@@H](Cc1ccccc1)C(=O)N[C@@H](CCCCN)C(=O)NCC(=O)N[C@@H](Cc1ccccc1)C(=O)N[C@@H](C)C(=O)N[C@@H](Cc1c[nH]c2ccccc12)C(=O)N[C@@H](CC(N)=O)C(=O)N[C@H](C(=O)N[C@H]1CSSC[C@@H](C(=O)N[C@@H](Cc2c[nH]cn2)C(=O)N[C@@H](CCCNC(=N)N)C(=O)N[C@@H](CCCNC(=N)N)C(=O)N[C@@H](C)C(=O)N[C@@H](CC(N)=O)C(N)=O)NC(=O)[C@H](C(C)C)NC(=O)[C@H](CCCNC(=N)N)NC(=O)[C@H](C(C)C)NC(=O)CNC(=O)[C@H](CC(N)=O)NC(=O)[C@H](CCCNC(=N)N)NC(=O)[C@H](Cc2ccc(O)cc2)NC(=O)[C@H](C(C)C)NC1=O)C(C)C)C(C)C — mean corpuscular haemoglobin (ICR mice, blood; intraperitoneal, 5 mg/kg, day 5): 13.3 ± 0.29 pg
CCS(=O)(=O)Nc1ccc(Oc2ccc(F)cc2F)c(-c2cn(C)c(=O)c3[nH]ccc23)c1 — treatment-emergent adverse events (serious lung infection; human, relapsed/refractory AML; oral, dose not given): 0%
COc1ncnn2ccc(-c3cnc4nc(C)n(Cc5nnc([C@@H](C)F)o5)c4c3)c12 — patients with decreased WBC count (phase 1 trial; human patients; oral, dose not given, CTCAE grade 3): 7.1%
CCc1ccc(CC/C=C/c2ccc3c(c2)C(=O)CC3)cc1 — TC (Sprague-Dawley rat, male; oral, 30 mg/kg/day, 14 days): 1.65 mM
COc1ccc2nc3cc(Cl)ccc3c(Nc3cc(CN4CCCC4)c(O)c(CN4CCCC4)c3)c2n1 — basophils (mouse, blood; intraperitoneal, 14 mg/kg): 1.42%
COc1cc2c(Oc3ccc4[nH]c(C)cc4c3F)ccnc2cc1OCC1(N)CC1 — incidence of adverse event (item: grade 1 or 2 gingival bleeding; paediatric high-risk refractory sarcoma; whole group): 11.8%
CCCCN(C)CCNC(=O)c1cc(-c2ccc(Cl)s2)nc2ccccc12 — cytotoxicity efficacy (Vero-E6; CellTiter-Glo ATP; concentration not given, 72 h, first round 5-point; baseline: DMSO 0%, hyamine -100%, more negative, more toxic): -15.1%
COc1ncccc1-c1cnn2ccc(N3CCN(C(=O)OC(C)C)CC3)nc12 — drug concentration (rat, CCI mechanical hyperalgesia model, plasma; oral, 10 mg/kg, 210 min): 1400 nM
CC(C)(C)NCc1ccc(Nc2ccnc3cc(Cl)ccc23)cc1O — cytotoxicity efficacy (Vero-E6; CellTiter-Glo ATP; concentration not given, 72 h, retest 8-point duplicates; baseline: DMSO 0%, hyamine -100%, more negative, more toxic): -29.5%
CN1CC[C@@H](c2c(O)cc(O)c3c(=O)cc(-c4ccc(C(F)(F)F)cc4Cl)oc23)[C@@H]1CO — patients with adverse event (item: Fatigue; B-cell malignancies or AML; oral, 100 mg, continuous dosing): 25%

Repeated from above:
CO[C@H]1C[C@@H]2CC[C@@H](C)[C@@](O)(O2)C(=O)C(=O)N2CCCC[C@H]2C(=O)O[C@H]([C@H](C)C[C@@H]2CC[C@@H](OC(=O)NCCOCCOCCOCCOCCOCCOCCOCCOCCC(=O)N3CCc4cc(Cn5nc(-c6ccc7oc(N)nc7c6)c6c(N)ncnc65)ccc4C3)[C@H](OC)C2)C[C@@H](O)[C@H](C)/C=C(\C)[C@@H](O)[C@@H](OC)C(=O)[C@H](C)C[C@H](C)/C=C/C=C/C=C/1C — abdominal pain incidence (patients with advanced solid tumours; intravenous, 6 mg weekly, grade 3 or higher): 0%
C[C@]1(CO)Cc2ncn(-c3ccc(C#N)c(Cl)c3)c2C(=O)O1 — tmax at steady state (human, plasma; 40 mg once daily, fasted): 1.5 h
